Assay results from different studies.
Values joined by “and” are separate records of one study, mostly repeats; a detail may differ. Numbers after ± are the reported error.
gag-pol integrase: Gag-Pol polyprotein, integrase (gag-pol, Human immunodeficiency virus type 1 group M subtype B, UniProt P04585)
HTR2C: 5-hydroxytryptamine receptor 2C (HTR2C, Homo sapiens, UniProt P28335)
TGFBR2: TGF-beta receptor type-2 (TGFBR2, Homo sapiens, UniProt P37173)
nusB with NusE: Transcription antitermination protein NusB, with NusE (nusB, Bacillus subtilis, UniProt P54520)
HTR2A: 5-hydroxytryptamine receptor 2A (HTR2A, Homo sapiens, UniProt P28223)
HTR7: 5-hydroxytryptamine receptor 7 (HTR7, Homo sapiens, UniProt P34969)

| Structure (SMILES) | target or system | assay | test system | setting | how to read | endpoint | result |
| --- | --- | --- | --- | --- | --- | --- | --- |
| Cc1ccc(-c2ccc3c(-c4ccccc4)cn(C)c3n2)cc1 | gag-pol integrase | strand transfer, inhibitor | HIV-1 | 10 µM | – | inhibition | 51.7% |
| CC(=O)N[C@H](C(=O)N1C[C@H](O)C[C@H]1C(=O)NCc1ccc(-c2scnc2C)cc1)C(C)(C)SCCCCCCNC(=O)C[C@@H]1N=C(c2ccc(Cl)cc2)c2c(sc(C)c2C)-n2c(C)nnc21 | Bromodomain-containing protein 4, BD1 (BRD4, Homo sapiens, UniProt O60885) | binding, ITC | – | 25 °C, compound in cell, protein in syringe | – | ΔH | -18.4 ± 0.7 kcal/mol |
| Nc1ccc2cc3ccc(N)cc3nc2c1 | Chymotrypsinogen A, activated (alpha-chymotrypsin) (Bos taurus, UniProt P00766) | isothermal titration calorimetry | – | concentration not given, 25 °C, with: 0.5 M N,N-dimethylglycine | – | binding enthalpy | -20.7 ± 1.41 kcal/mol |
| Cn1cc(-c2ccc3c(c2)OCO3)c2ccc(Cl)nc21 | gag-pol integrase | strand transfer, inhibitor | HIV-1 | 10 µM | – | inhibition | 54% |
| CC1=C(Cc2cn(Cc3ccccc3)nn2)C(=O)c2ccccc2C1=O | Schistosoma mansoni | – | adult worms | 10 µM, 48 h | – | killing | 55.1% |
| Cc1ccc(OC[C@@H]2CN(CCN3CCc4ccccc43)CCO2)cn1 | HTR2C | radioligand binding | – | concentration not given, with: [3H]mesulergine | – | inhibition | 7.1% |
| Nc1ncnc2c1ncn2[C@@H]1O[C@H](COP(=O)(O)CP(=O)(O)OP(=O)(O)O)[C@@H](O)[C@H]1O | P2X purinoceptor 1 (P2RX1, Homo sapiens, UniProt P51575, M214A) | saturation binding | HEK293 | 13 nM | – | specific binding | 150 CCPM and 97.5 CCPM and 254 CCPM |
| N#Cc1ccc2c(c1)[C@H]1CCCN(C(=O)c3ccc4[nH]cnc4c3)[C@H]1C2 | – | – | human females | 240 mg, day 15 | – | SHBG level | 42 nmol/L |
| O=C(O)C(=O)Cc1ccc(O)cc1 | Nostoc punctiforme | substrate, Ellman CoA release | – | with: acetyl-CoA | – | Km | 40 ± 4.2 µM |
| COc1ccc(F)cc1C(=O)NCc1ccc(-c2nn([C@@H](C)C(F)(F)F)c(N)c2C(N)=O)cc1 | HCK (Homo sapiens, UniProt P08631) | target engagement, competitive chemoproteomics | human PBMCs | 0.1 µM | – | inhibition | 0.1% |
| COc1cc(C(=O)NS(=O)(=O)c2ccccc2C)ccc1Cc1cn(C)c2ccc(NC(=O)OC3CCCC3)cc12 | LRRC8A/LRRC8C (Homo sapiens, UniProt Q8IWT6+Q8TDW0, L134K/L136K) | ion current, whole-cell patch clamp | HCT LRRC8-/- cells | 3 µM, +100 mV, L134K/L136K heteromers | – | inhibition | 34% and 71.1% and 48.6% and 26.8% and 48.9% |
| CN1CCN(c2cc(-c3ccncc3)c(-c3ccc4ccccc4c3)nn2)CC1 | TBXA2R (Homo sapiens, UniProt P21731) | antagonist, FLIPR | – | 10 µM | – | inhibition | 2.6% |
| Fc1ccc(-c2c(-c3ccncc3)ncn2-c2ccc(-c3ccccc3)cc2)cc1 | TGFBR2 | inhibitor | – | 1 µM | – | inhibition | 43% |
| Cc1cc(-c2ccnc3[nH]cc(F)c23)cc(F)c1[C@@]1(O)[C@H](C)CN(C2CCS(=O)(=O)CC2)C[C@@H]1C | ROCK1 and ROCK2 | ATP probe binding, KiNativ, refers to: Lys2 site | HEK293T cell lysate | 10 µM | – | inhibition | 56% |
| CCS(=O)(=O)c1nc(S(=O)(=O)c2ccccc2Cl)c(N2CCN(C)C(=O)[C@H]2C)s1 | HTR2C | – | – | 10 µM | – | inhibition | 2.91% |
| O=C(Nc1nc2cccc(-c3ccc(CN4CCS(=O)(=O)CC4)cc3)n2n1)C1CC1 | – | refers to: chills | human rheumatoid arthritis patients | oral, 75 mg once daily, 4 weeks, regardless of relatedness | – | treatment-emergent adverse events | 0% |
| COc1ccc2c(c1)CN(CCCN1CCN(c3ccccc3OC)CC1)C2=O | HTR2C | radioligand binding | – | concentration not given, with: [3H]mesulergine | – | inhibition | 58.5% |
| CC[C@@H]1[C@H](F)C(=O)N[C@@H]1COc1nccc2cc(C(N)=O)c(OC)cc12 | PIKFYVE (Homo sapiens, UniProt Q9Y2I7) | ATP probe binding, KiNativ profiling, refers to: ATP loop probe site | THP-1 cell lysate | 0.04 mM | – | inhibition | 8.8% |
| Cc1cccc(O[C@@H]2CCC[C@H](C(C)CNCc3ccncc3)C2)c1 (relative stereo) | Mtnd1/Ndufs2/Ndufs7, complex I (Mus musculus, UniProt P03888+Q91WD5+Q9DC70) | NADH oxidation, inhibitor | – | 1 µM | – | inhibition | ~15% |
| Nc1nc2c(ncn2[C@@H]2O[C@H](COP(=O)(O)O)[C@@H](O)[C@H]2O)c(=O)[nH]1 | GUK1 (Homo sapiens, UniProt Q16774, D103A) | binding, ITC | – | – | – | ΔG | -5.49 kcal/mol |
| O=C(NO)c1ccc(CN2CCCCc3ccccc32)c(F)c1 | HTR2C | radioligand binding, radioligand displacement | – | 10 µM, mean of replicates | – | inhibition | 7.99% |
| COc1cccc(OC[C@@H]2CN(CC(=O)N3CCc4ccccc43)CCO2)c1 | HTR2C | radioligand binding | – | concentration not given, with: [3H]mesulergine | – | inhibition | 34% |
| CCNC(=O)Nc1ccccc1OC/C=C\COc1ccccc1NC(=O)NCC | nusB with NusE | NusE binding, inhibitor, competitive ELISA | – | 25 µM | – | inhibition | 11% |

| Structure (SMILES) | target or system | assay | test system | setting | how to read | endpoint | result |
| --- | --- | --- | --- | --- | --- | --- | --- |
| COc1ccc(-c2ccc3c(C(=O)c4cc(OC)c(OC)c(OC)c4)c[nH]c3c2)cc1 | Tubulin alpha-1B chain/TUBB2B (Bos taurus, UniProt P81947+Q6B856) | tubulin polymerization, turbidimetry | – | concentration not given | – | inhibition | inhibited |
| CN(C(=O)n1cnc(-c2ccc[n+]([O-])c2)c1)C1CCCCC1 | Histamine H1 receptor (Bos taurus, UniProt P30546) | binding | – | 10 µM | – | inhibition | 1.73% |
| O=C(O)C(=O)Cc1ccccc1 | Nostoc punctiforme | substrate, Ellman CoA release | – | with: acetyl-CoA | – | Km | 60 ± 3.4 µM |
| Clc1cncc(OC[C@@H]2CN(CCN3CCc4ccccc43)CCO2)c1 | HTR2A | radioligand binding | – | concentration not given, with: [3H]ketanserin | – | inhibition | 39.9% |
| Cn1cncc1C1=CN(c2ncnc3[nH]cnc23)CCS1 | PRKD3 (Homo sapiens, UniProt O94806) | kinase activity, HotSpot | – | 2 µM | – | inhibition | 88.9% |
| N=C(N)c1ccc(OC/C=C\COc2ccc(C(=N)N)cc2)cc1 | nusB with NusE | NusE binding, inhibitor, competitive ELISA | – | 25 µM | – | inhibition | 0% |
| COc1ccc2c(c1)C(=O)N(CCCN1CCN(c3ccccc3OC)CC1)C2 | HTR2C | radioligand binding | – | concentration not given, with: [3H]mesulergine | – | inhibition | 65.6% |
| CC(C)C[C@H](NC(=O)C[C@H](O)[C@H](CC(C)C)NC(=O)[C@H](Cc1c[nH]cn1)NC(=O)CNC(=O)[C@@H](NC(=O)[C@H](C)NC(=O)[C@H](Cc1c[nH]c2ccccc12)NC(=O)[C@H](CCC(N)=O)NC(=O)[C@@H](Cc1ccccc1)NC(=O)COCCOCCNC(=O)CCC(C(=O)O)N1CCN(CC(=O)O)CCN(CC(=O)O)CCN(CC(=O)O)CC1)C(C)C)C(N)=O (stereo partly shown) [lutetium-177 labelled] | – | – | BALB/c nu/nu mice, small intestine | 750 pmol, 1 h, with: PA 300 µg | – | tissue uptake | 0.5 ± 0.2 %ID/g |
| O=C(NO)c1cc(F)cc(OS(=O)(=O)Oc2ccccc2)c1 | HDAC4 (Homo sapiens, UniProt P56524) | – | – | 10 µM | – | inhibition | 19% |
| Cc1cc(-c2ccnc3[nH]cc(F)c23)cc(F)c1[C@@]1(O)[C@H](C)CN(C(=O)CN)C[C@@H]1C | ROCK1 and ROCK2 | ATP probe binding, KiNativ, refers to: Lys2 site | HEK293T cell lysate | 10 µM | – | inhibition | 60.2% |
| CCN(CC)c1ccc(C2Nc3ccc(C(=O)c4ccccc4)cc3NC3=C2C(=O)CC(C)(C)C3)cc1 (stereo not shown) | calcium channel | binding | – | 10 µM | – | inhibition | 24% |
| O=C(CN1CCO[C@@H](COc2cccnc2)C1)N1CCc2ccccc21 | HTR2A | radioligand binding | – | concentration not given, with: [3H]ketanserin | – | inhibition | 73.3% |
| CN1CCN(CCCOc2ccc(=O)n(-c3ccc(Cl)c(Cl)c3)n2)CC1 | NMDA receptor | radioligand binding | – | 1.0 µM | – | inhibition | 38.8 ± 4.93% |
| C[S+]([O-])c1ccc(-c2nc(-c3ccncc3)c(-c3ccc(F)cc3)[nH]2)cc1 (stereo not shown) | TGFBR2 | inhibitor | – | 1 µM | – | inhibition | 52% |
| OCCCN1CC[C@@H]2C[C@H]1c1cc(-c3ccc(C(F)(F)F)cc3)ccc12 | HTR7 | radioligand binding, PDSP competition binding | – | 10 µM | – | inhibition | < 50% |
| c1cc(N2CCN(CCCOc3ccc(CN4CCOCC4)cc3)CC2)c2ccsc2c1 | HTR2A | – | – | 10 µM | – | inhibition | 101 ± 2.6% |
| NC/C(=C\F)COc1cccc(Cn2c(=S)[nH]c(=O)c3[nH]cnc32)c1 | Protein-lysine 6-oxidase (Homo sapiens, UniProt P28300) | enzyme activity, inhibitor | – | 10 µM | – | inhibition | 24.4% |
| Cn1cc(Nc2nccc(-c3ccc4c(c3)CN(C3COC3)CC[C@H]4NC(=O)c3cn(C(C)(C)C)nn3)n2)cn1 | – | – | human, whole blood | 150 mg twice daily, day 14 | relative to: pre-dose baseline | NKT cell count change | -7.06% |
| COc1ccc2c(c1)C(=O)N(CCN1CCN(c3ccccc3OC)CC1)C2 | HTR2A | radioligand binding | – | concentration not given, with: [3H]ketanserin | – | inhibition | 38.4% |
| O=C(O)CC[C@H](NC(=O)N[C@@H](CCCCNC(=O)[C@H](Cc1ccc2ccccc2c1)NC(=O)CCCCCNC(=O)CN1CCN(CC(=O)O)CCN(CC(=O)O)CCN(CC(=O)O)CC1)C(=O)O)C(=O)O [gallium-68 labelled] | – | PET/CT | mouse, 22Rv1 xenograft, muscle | intravenous, 3.7 MBq, 4 h | – | SUVmean | 0.08 ± 0.01 SUV |
| c1cncc(OC[C@@H]2CN(CCN3CCc4ccccc43)CCO2)c1 | HTR7 | radioligand binding | – | concentration not given, with: [3H]LSD | – | inhibition | 17.7% |
| COc1ccc(-c2ccc3c(-c4ccccc4)cn(C)c3n2)cc1 | gag-pol integrase | strand transfer, inhibitor | HIV-1 | 10 µM | – | inhibition | 39.3% |
| O=C(O)c1cn(C2CC2)c2cc(N3CCNCC3)c(F)cc2c1=O | gyrA (Escherichia coli K-12, UniProt P0AES4) | enzyme activity, inhibitor, DNA supercoiling | – | 0.1 µM | – | inhibition | 35% |

Some of these lines once more:
| Structure (SMILES) | target or system | assay | test system | setting | how to read | endpoint | result |
| --- | --- | --- | --- | --- | --- | --- | --- |
| CC1=C(Cc2cn(Cc3ccccc3)nn2)C(=O)c2ccccc2C1=O | Schistosoma mansoni | – | adult worms | 10 µM, 48 h | – | killing | 55.1% |
| C[S+]([O-])c1ccc(-c2nc(-c3ccncc3)c(-c3ccc(F)cc3)[nH]2)cc1 (stereo not shown) | TGFBR2 | inhibitor | – | 1 µM | – | inhibition | 52% |
| Clc1cncc(OC[C@@H]2CN(CCN3CCc4ccccc43)CCO2)c1 | HTR2A | radioligand binding | – | concentration not given, with: [3H]ketanserin | – | inhibition | 39.9% |
| Cc1cccc(O[C@@H]2CCC[C@H](C(C)CNCc3ccncc3)C2)c1 (relative stereo) | Mtnd1/Ndufs2/Ndufs7, complex I (Mus musculus, UniProt P03888+Q91WD5+Q9DC70) | NADH oxidation, inhibitor | – | 1 µM | – | inhibition | ~15% |
| N=C(N)c1ccc(OC/C=C\COc2ccc(C(=N)N)cc2)cc1 | nusB with NusE | NusE binding, inhibitor, competitive ELISA | – | 25 µM | – | inhibition | 0% |
| COc1ccc(F)cc1C(=O)NCc1ccc(-c2nn([C@@H](C)C(F)(F)F)c(N)c2C(N)=O)cc1 | HCK (Homo sapiens, UniProt P08631) | target engagement, competitive chemoproteomics | human PBMCs | 0.1 µM | – | inhibition | 0.1% |
| CCNC(=O)Nc1ccccc1OC/C=C\COc1ccccc1NC(=O)NCC | nusB with NusE | NusE binding, inhibitor, competitive ELISA | – | 25 µM | – | inhibition | 11% |
